Measured values of several laboratories.
± marks the error that the study gave.

SMILES | tested on | assay | system | setting | how to read | quantity | value
CCCCN1C[C@H](O)[C@@H](O)[C@@H](O)[C@H]1CO | sample D patient fibroblasts | Gb3 level lowering, LC-MS/MS, refers to: Gb3 d18:1/20:0 | – | 216 h | – | IC50 | 9900 nM
COc1cc2nc(N3CCN(C(=O)c4ccco4)CC3)nc(N)c2cc1OC | CNE1 | MTT | – | 48 h | – | IC50 | 19000 ± 5100 nM
CC1(C)COc2ccc(F)cc2CN2c3nc4c(cnn4cc3OC[C@H]2C(F)F)C(=O)N1 | Ba/F3 ETV6-TRKC | cell viability | – | – | – | IC50 | < 0.5 nM
C=CC(=O)N1CCC(COCC(=O)N2CCN(c3nc(-c4cnc(N)nc4C(F)F)nc(N4CCOC[C@@H]4C)n3)CC2)CC1 | A2058 | FOXO1 translocation, kinase translocation reporter | – | 2 h | – | IC50 | 1550 nM
COC(=O)c1ccc(N2CCN(C)CC2)c(NC(=O)c2cccc(OC)c2)c1 | HBL-1 | – | – | 0.5 µM, 120 h | – | viability | 123%
Cc1c(C(=O)NN2CCCCC2)nn(-c2ccc(Cl)cc2Cl)c1-c1ccc(Cl)cc1 | CHO cells expressing human MOR, membranes | basal G-protein activity, inverse agonist | – | – | – | IC50 | 1100 ± 270 nM
Oc1ccccc1-c1n[nH]cc1-c1ccnc2ccccc12 | BCK1 (Candida albicans) | kinase binding, MIB/MS competition | Candida albicans lysate | 10 µM | relative to: DMSO | log2 fold change | 0.26
C[C@H](Nc1ccc2c(c1)OCCn1cc(N3C(=O)OC[C@H]3C(F)F)nc1-2)C(N)=O | A2058 | western blot, refers to: phospho-S6 Ser235/Ser236 | – | 2 h | – | IC50 | > 3000 nM
CC1(C)CCC(CN2CCN(c3ccc(C(=O)NS(=O)(=O)c4ccc(NCC5CCOCC5)c([N+](=O)[O-])c4)c(Oc4cnc5[nH]ccc5c4)c3)CC2)=C(c2ccc(Cl)cc2)C1 | CD3+CD4- T cells | cell viability | – | healthy donor blood | – | IC50 | 34.2 nM
Cc1nc(NC(=O)N2CCC[C@H]2C(N)=O)sc1-c1ccnc(C(C)(C)C(F)(F)F)c1 | A2058 | western blot, refers to: phospho-PKB/Akt Ser473 | – | 2 h | – | IC50 | 1940 nM
OCn1ccnc1 | BEAS-2B | cell viability, MTT | – | 24 h | – | IC50 | > 800000 nM
CC(C)(C)Cn1c(N)nc2ccc(-c3[nH]c(C(C)(C)C)nc3-c3ccc(F)cc3)nc21 | MAPK14-independent cell lines | cell growth, drug sensitivity | – | – | – | IC50 | 15300 nM
COc1cccc2c(NN=Cc3cccc(F)c3)ccnc12 | Plasmodium yoelii | – | 17XL | 384-well | – | IC50 | > 20000 nM
C[C@H]1Oc2cc(cnc2N)-c2c(nn(C)c2C#N)CN(C)C(=O)c2ccc(F)cc21 | Ba/F3 ETV6-TRKC | cell viability | – | – | – | IC50 | 439 nM
Cc1cc(Cn2ccnc2)nn1C | BEAS-2B | cell viability, MTT | – | 24 h | – | IC50 | > 800000 nM
O=C(c1cc(Cc2n[nH]c(=O)c3ccccc23)ccc1F)N1CCN(C(=O)C2CC2)CC1 | SK-OV-3 RAD51C knockout | colony formation | – | – | – | IC50 | 5.2 nM
COc1cc2ccc(=O)oc2cc1OC | COLO 320 multidrug resistant | cell growth, MTT | – | 72 h | – | IC50 | 50200 nM
Oc1cc(O)cc(/C=C/c2ccc(O)c(O)c2)c1 | HBL-1 | – | – | 0.5 µM, 120 h | – | viability | 128%
CC(=O)N1CCC(Nc2cc(C(=O)NC[C@H](O)CN3CCc4ccccc4C3)ncn2)CC1 | PK-1 MTAP wild type | cell viability | – | 240 h | – | IC50 | 52 nM
COc1cccc2c1C(=O)c1c(O)c3c(c(O)c1C2=O)C[C@@](O)(C(=O)CO)C[C@@H]3O[C@H]1C[C@H](N)[C@H](O)[C@H](C)O1 | CEM/ADR5000 (P-gp overexpressing, multidrug resistant) | cell viability, resazurin | – | 72 h | – | IC50 | 38200 ± 13300 nM

SMILES | tested on | assay | system | setting | how to read | quantity | value
Cc1cc(N2CCc3c(c(C)nn3CC34CCC(NC(=O)[C@@H]5COCCN5)(CC3)CC4)C2)c2cnn(C)c2n1 | human PBMC | IFN-driven gene expression, inhibitor, qRT-PCR, refers to: IFI6 mRNA | – | two donors, with: ssRNA | – | IC50 | 0.6 ± 0.3 nM
Cc1ccc(CNC(=O)Cn2cc(CSc3nc4ccccc4[nH]3)nn2)cc1 | Caco-2 | cell viability, MTT | – | – | – | IC50 | 8.3 µg/mL
CCNc1nc2c(c(N3CC(=O)Nc4cc(OC)ccc43)n1)CCC2 | Taxol-sensitive human cancer lines | cell proliferation, MTS | – | 72 h, mean over lines | – | IC50 | 0.5 nM
Cc1ncsc1-c1ccc(CNC(=O)[C@@H]2C[C@H](O)CN2C(=O)[C@@H](NC(=O)C2(F)CC2)C(C)(C)C)c(OCCOc2ccc(CN3CCN(c4cc(-c5ccccc5O)nnc4N)CC3)cc2)c1 | NCI-H1568, SMARCA4-deficient | cell proliferation, CellTiter-Glo | – | 168 h | – | IC50 | 434 nM
Cc1c(C(=O)O)ccc2c3n(nc12)[C@@H]1[C@H](C3)N(CC2CC2)[C@@]2(C(=O)Nc3cc(Cl)ccc32)[C@H]1c1cccc(Cl)c1F | A204 (MDM2 non-amplified) | cell growth, alamarBlue | – | 120 h | – | IC50 | 7 nM
CC(C)(C)c1cnc(CSc2cnc(NC(=O)C3CCN(C(=O)CCCCCCCN4Cc5cc6c(cc5C4)C(=O)N(C4CCC(=O)NC4=O)C6=O)CC3)s2)o1 (stereo not drawn) | U-87 MG glioblastoma | cell viability, MTT | – | – | – | IC50 | 33.9 nM
CCC(=O)N1CCC(COCC(=O)N2CCN(c3nc(-c4cnc(N)nc4C(F)F)nc(N4CCOC[C@@H]4C)n3)CC2)CC1 | A2058 | FOXO1 translocation, kinase translocation reporter | – | 2 h | – | IC50 | 2380 nM
Cc1[nH]c(C)c(-c2ccc(-c3cccc(OC(F)(F)F)c3)nc2)c(=O)c1Cl | Plasmodium yoelii | – | 17XL | 384-well | – | IC50 | 191 ± 69 nM
COc1cc(N2CCC(N3CCN(C)CC3)CC2)ccc1Nc1ncc(Cl)c(Nc2ccccc2P(C)(C)=O)n1 | Ba/F3 ETV6-TRKC | cell viability | – | – | – | IC50 | 1260 nM
COc1cc2c3c(n(CCCNC(C)C)c(=O)c2cc1OC)-c1nc2c(cc1C3=O)OCO2 | ARD multiple myeloma cells | cytotoxicity, MTS | – | 72 h | – | IC50 | 70 ± 1 nM
COc1cc2nc(N3CCN(C(=O)C4COc5ccccc5O4)CC3)nc(N)c2cc1OC (stereo not drawn) | CNE1 | MTT | – | 48 h | – | IC50 | 26000 ± 5700 nM
C=CC(=O)Nc1cc(Nc2nccc(-c3cn(C)c4ccccc34)n2)c(OC)cc1N(C)CCN(C)C | Ba/F3 EGFR T790M/L861Q | cell growth, CellTiter-Glo | – | 72 h | – | IC50 | 12 ± 1.12 nM
Oc1ccc2c3c(cnc2c1)-c1ccc(C(F)(F)F)cc1O[C@@H]3c1ccc(OCCN2CC(CF)C2)cc1 | ER-positive breast cancer cells | cell growth | – | two doubling times | – | IC50 | < 100 nM
Nc1ccn([C@@H]2O[C@H](CO)[C@@H](O)C2(F)F)c(=O)n1 | PANC-1 | cell viability, MTT | – | mutant KRAS primary | – | IC50 | > 10000 nM
COc1cc2c3c(n(CCCNCCO)c(=O)c2cc1OC)-c1nc2c(cc1C3=O)OCO2 | ARD multiple myeloma cells | cytotoxicity, MTS | – | 72 h | – | IC50 | 121 ± 29 nM
C[C@H]1Oc2cc(cnc2N)-c2c(nn(C)c2C#N)CN(C)C(=O)c2ccc(F)cc21 | HCC78, SLC34A2-ROS1 | – | – | – | – | IC50 | 0.88 nM
S=C(Nc1ccccc1)Nc1nccs1 | LUHMES 3D neurospheres | viability | – | 24 h | – | IC50 | 140 nM
C[C@@H]1CN(C(=O)c2ccc(NC(=O)c3cc(O[C@H](C)c4c(Cl)ccc(F)c4Cl)c(N)nn3)cc2)C[C@H](C)N1 | Ba/F3 ETV6-TRKC | cell viability | – | – | – | IC50 | 91 nM
O=C(C[C@@H](C(F)F)n1ccc(F)n1)N1CCC(O)(Cn2cnc3c(cnn3-c3ccc(F)cc3)c2=O)CC1 | Capan-1 USP7-797-resistant pool R(mix) | cell viability, SRB | – | 5 days | – | IC50 | > 20000 nM

Excerpt of the above:
SMILES | tested on | assay | system | setting | how to read | quantity | value
COc1cc2nc(N3CCN(C(=O)C4COc5ccccc5O4)CC3)nc(N)c2cc1OC (stereo not drawn) | CNE1 | MTT | – | 48 h | – | IC50 | 26000 ± 5700 nM
CCNc1nc2c(c(N3CC(=O)Nc4cc(OC)ccc43)n1)CCC2 | Taxol-sensitive human cancer lines | cell proliferation, MTS | – | 72 h, mean over lines | – | IC50 | 0.5 nM
COC(=O)c1ccc(N2CCN(C)CC2)c(NC(=O)c2cccc(OC)c2)c1 | HBL-1 | – | – | 0.5 µM, 120 h | – | viability | 123%
C[C@H]1Oc2cc(cnc2N)-c2c(nn(C)c2C#N)CN(C)C(=O)c2ccc(F)cc21 | HCC78, SLC34A2-ROS1 | – | – | – | – | IC50 | 0.88 nM
S=C(Nc1ccccc1)Nc1nccs1 | LUHMES 3D neurospheres | viability | – | 24 h | – | IC50 | 140 nM
